Results from different studies.
Each numbered part is a random draw from the data of one study; scales do not carry over between parts. Positions count from the first letter of the parent shown.

Sample 1
Target: Histone acetyltransferase KAT6A, winged helix 1, GST fusion (KAT6A, Homo sapiens, UniProt Q92794, residues 1-85)
Method: protein binding microarray
Form: double-stranded DNA, one strand shown
Sample: in vitro
Concentration: not given
Notes: 8-mer, flanks averaged, mean of 2 arrays, mostly near background
Baseline: not given
Reading: higher = stronger binding
Target sequence (chain): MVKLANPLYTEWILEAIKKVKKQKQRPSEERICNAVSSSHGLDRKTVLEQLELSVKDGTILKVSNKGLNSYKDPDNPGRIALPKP
For `CTCCCTAA`, the E-score was -0.0269.
`CGGTTTAA` gave an E-score of 0.122.
For `AAACGCGA`, the E-score was 0.128.
With `ACTGCGCT` the E-score was 0.149.
For `TTAAGTAA`, the E-score was -0.0652.
For `CAATCGGG`, the E-score was 0.102.
For `CAACATTA`, the E-score was -0.149.
The E-score of `CAATCCCA` is reported as -0.217.
With `AGAGCGGC` the E-score was 0.359.
`CTAGGCAA` has an E-score of -0.185.
The E-score of `ATTCCGCG` is reported as 0.326.
`ACCATTCA` has an E-score of -0.128.
The E-score of `ACCTGAGC` is reported as -0.00504.
For `CCGTCAAG`, the E-score was 0.261.
For `ATTGTTCG`, the E-score was -0.00143.
`TTCCGAAA` has an E-score of -0.0904.
For `CGGACAAC`, the E-score was -0.002.
The E-score of `CCAGGATC` is reported as -0.111.
`GTGGTGAA` gave an E-score of -0.0996.

Sample 2
Target: Centromere-binding protein 1, full length, His-tagged (CBF1, Saccharomyces cerevisiae, UniProt P17106, residues 1-351)
UniProt P17106, sequence (whole entry, looked up): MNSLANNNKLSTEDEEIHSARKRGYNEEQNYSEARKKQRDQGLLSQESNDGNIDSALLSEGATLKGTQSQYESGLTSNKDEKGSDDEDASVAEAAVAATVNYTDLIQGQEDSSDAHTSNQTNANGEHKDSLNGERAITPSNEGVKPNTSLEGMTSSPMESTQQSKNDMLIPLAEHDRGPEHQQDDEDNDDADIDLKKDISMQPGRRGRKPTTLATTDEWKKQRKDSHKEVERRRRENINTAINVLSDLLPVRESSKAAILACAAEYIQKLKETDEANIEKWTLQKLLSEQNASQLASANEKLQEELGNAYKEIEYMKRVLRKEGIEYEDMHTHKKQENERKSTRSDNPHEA
Method: competition protein-binding microarray
Form: double-stranded DNA, one strand shown
Sample: in vitro
Concentration: 2 µM
Notes: whole 60-bp probe, lowest competitor level
Together with: Pho4 competitor, 0.05 µM
Reading: higher = stronger binding
Shared flanks, not repeated: … GTCTTGATTCGCTTGACGCTGCTG
The fluorescence intensity of `TTTCAAGCGTCCGAACGCGTGAGGATATATGCAAGC` is reported as 90.2 a.u.
`GCAGACGACTAAAGCCATGGTCAAGCCTGGTAATCC` has a fluorescence intensity of 56.5 a.u.
`AAGCCCAGATACAATCACCTGTAGAAAGAAACAAAG` has a fluorescence intensity of 91.8 a.u.
With `GAAACAATATAACAGCACGTGTTGGAACGGTACACA` the fluorescence intensity was 2070 a.u.
For `AAAGGCTCAGATCTGCATGTGTTGTATAACACTGGC`, the fluorescence intensity was 82.2 a.u.
The fluorescence intensity of `TCTCTTCTATCTTTAAAAGCAGGATGTGTTTCTTCC` is reported as 78.3 a.u.
`CGGGGTTAAGTTTGGGACGTGGGTGGCTTGCAGCAG` has a fluorescence intensity of 53.9 a.u.
For `GAGCTCTTTGGCGGCAACGTGATGGGCGAGTTGGTT`, the fluorescence intensity was 253 a.u.
The fluorescence intensity of `GATGCTAAGAAGATATCCGTGATGGGCATCCGAGCT` is reported as 70.1 a.u.
With `AGTCCGGTGTGTAGGTGCATGACAGATTGGTCCGGC` the fluorescence intensity was 60.4 a.u.
For `ATCCTCTTCTTCGTCCACGTGCCGACTTTTGTTTCT`, the fluorescence intensity was 1940 a.u.
`CATACCCAACCTTTTCACGTGTAGTAAGATATTTGT` gave a fluorescence intensity of 730 a.u.
The fluorescence intensity of `CAGCGTTATCGCCGTCACGGCGATCTTGAAGTGTAG` is reported as 81.6 a.u.
The fluorescence intensity of `TGAAGGTTCTTTCTGCTCGTGAAGAGTCGCTAGACG` is reported as 64.2 a.u.
`AACAATAACTGCCAAAACGTGGTGAACGGACGCTGA` has a fluorescence intensity of 88.4 a.u.
The fluorescence intensity of `TTCCCGGGAGGGGTGGGCGTGCGATTGGAATTAGTC` is reported as 133 a.u.
The fluorescence intensity of `CGGGGTTAAGTTTGTCACCGGACTTGCTTGCAGCAG` is reported as 92.2 a.u.
The fluorescence intensity of `GTCTTGTCTCATTTTCACGTGTTGTTCCCCACTTCA` is reported as 697 a.u.
The fluorescence intensity of `ATACCAGAGTATAGTGACGTGATGGGGTTGCATTAG` is reported as 87.4 a.u.

Sample 3
Target: CCNE1, cyclin fold, Cln2 fusion (human)
Method: yeast growth competition, sequencing
Sample: yeast
Notes: strong parent motif
Baseline: not given
Reading: higher = stronger binding
Starting sequence: SCAPER docking peptide (human); SNARRSLNFGGST
Under “normalised enrichment score”, `SNARRTLNFGGST [S6T]` is recorded as 1.96.
`SNDRRSLNFGGST [A3D]` — result for “normalised enrichment score”: -0.0657.
`SNARRSQNFGGST [L7Q]`: “normalised enrichment score” 0.689.
`SNARRSLSFGGST [N8S]` — result for “normalised enrichment score”: 1.85.
Under “normalised enrichment score”, `INARRSLNFGGST [S1I]` is recorded as 0.375.
For `SNARRSGNFGGST [L7G]`, “normalised enrichment score” read -0.597.
For `SNARRSLNFTGST [G10T]`, “normalised enrichment score” read 1.12.
For `SHARRSLNFGGST [N2H]`, “normalised enrichment score” read 0.812.
`SNARRSLNFGGSM [T13M]` — result for “normalised enrichment score”: 0.929.
`SNARRYLNFGGST [S6Y]`: “normalised enrichment score” 1.67.
For `SNARRSLNAGGST [F9A]`, “normalised enrichment score” read 0.222.
`SNARDSLNFGGST [R5D]`: “normalised enrichment score” 0.666.
Under “normalised enrichment score”, `SNARASANFGGST [R5A L7A]` is recorded as -0.167.
`SNACRSLNFGGST [R4C]` — result for “normalised enrichment score”: 0.543.
For `SNARRSVNFGGST [L7V]`, “normalised enrichment score” read -0.399.
For `SNARRSLNFGGMT [S12M]`, “normalised enrichment score” read 0.253.
`SNAGRSLNFGGST [R4G]` — result for “normalised enrichment score”: 0.354.
`SNFRRSLNFGGST [A3F]`: “normalised enrichment score” 0.998.
For `SNCRRSLNFGGST [A3C]`, “normalised enrichment score” read 0.476.
`SNARRSLNFGGSR [T13R]`: “normalised enrichment score” 1.14.
For `SNARMSLNFGGST [R5M]`, “normalised enrichment score” read 0.943.
`SNARRSLNFGGSN [T13N]` — result for “normalised enrichment score”: 1.24.
For `SNARRSLNFGGTT [S12T]`, “normalised enrichment score” read 0.861.
`SNARRSLNFGGSV [T13V]`: “normalised enrichment score” 1.56.
For `SNARRSLNFGGAT [S12A]`, “normalised enrichment score” read 1.38.

Sample 4
Target: Interferon regulatory factor 5, full length, phosphomimetic (IRF5, Homo sapiens, UniProt Q13568-2, residues 1-514, S451D/S453D/S456D/S462D)
Method: protein-binding microarray
Form: double-stranded DNA, one strand shown
Sample: in vitro
Concentration: 940 nM top
Notes: 60-bp whole probe
Together with: salmon DNA 0.4 mg/ml
Baseline: random background probes
Reading: higher = stronger binding
Shared flanks, not repeated: GCCTAGCAC … GTCTTGATTCGCTTGACGCTGCTG
Under “fitted relative affinity”, `TTAGATTTCAGTTACGATTAGTGCTAG` is recorded as 1.03 z-score.
Under “fitted relative affinity”, `GACGATCTCAGTCTCTAGACGTGCTAG` is recorded as 0.507 z-score.
Under “fitted relative affinity”, `GAATTTCCCACTTTCACTTCGTGCTAG` is recorded as 3.5 z-score.
For `GACGGTATCGGGTTTCCGGACGTGCTA`, “fitted relative affinity” read 5.05 z-score.
Under “fitted relative affinity”, `ATAGGACTGGGGTATCGGTTAGTGCTA` is recorded as 2.46 z-score.
`TCATCTTGCTTTTTAGAACTGTGCTAG`: “fitted relative affinity” 0.694 z-score.
Under “fitted relative affinity”, `TTAGGTTTTGACTATCGGTTAGTGCTA` is recorded as 1.17 z-score.
Under “fitted relative affinity”, `GACGGTTTCGTTTTCGGGACGTGCTAG` is recorded as 8.35 z-score.
For `GACGATCTCAGTCTCGAGATGTGCTAG`, “fitted relative affinity” read 0.595 z-score.
`TTAAGTTTCCTTTCCCTTTAGTGCTAG`: “fitted relative affinity” 2.48 z-score.
`CTAATTTTCATTTTCCAAATGTGCTAG`: “fitted relative affinity” 1.03 z-score.
`GGAAGTCCCATGTTGCAGACTGTGCTA` — result for “fitted relative affinity”: 0.0727 z-score.
For `TTAGGACTCCTACTGCTTTAGTGCTAG`, “fitted relative affinity” read -0.26 z-score.
Under “fitted relative affinity”, `TTAGGTATCTACTATCGGTTAGTGCTA` is recorded as 1.63 z-score.
`GACGATTTTAGTTTCGAGACGTGCTAG`: “fitted relative affinity” 6.41 z-score.
For `TTAGATCTCAGTCTCGATCAGTGCTAG`, “fitted relative affinity” read 2.81 z-score.
Under “fitted relative affinity”, `TACGAACTGAGACTGGAGACGTGCTAG` is recorded as -0.354 z-score.
`GACGAACCGGGGTTTCGAGACGTGCTA` — result for “fitted relative affinity”: 1.92 z-score.
`TCATGCTTGTATCTGGGACTGTGCTAG`: “fitted relative affinity” -0.208 z-score.
For `CATCCAGCAGAGAGCCTCAGGTGCTAG`, “fitted relative affinity” read -0.336 z-score.
`GACGATTCCAGTTGCGAGACGTGCTAG` — result for “fitted relative affinity”: 0.227 z-score.
For `GAGGAACTGGGGTTTCGAGACGTGCTA`, “fitted relative affinity” read 1.11 z-score.
Under “fitted relative affinity”, `GACGGTTCCGGTTTGGGGACGTGCTAG` is recorded as 2.78 z-score.
Under “fitted relative affinity”, `GTCCTCCTCTCTCTTTCCACGTGCTAG` is recorded as 1.7 z-score.
`GACGATTCCAGTTTCGATACGTGCTAG`: “fitted relative affinity” 7.9 z-score.

Sample 5
Target: Fragile X messenger ribonucleoprotein 1, C-terminal low-complexity region (Fmr1, Mus musculus, UniProt P35922)
Method: RNA Bind-n-Seq
Form: RNA
Sample: in vitro
Concentration: 200 nM
Notes: whole 134-nt RNA, ends assumed
Together with: 150 mM LiCl
Baseline: input library
Reading: higher = stronger binding
Library: 7-deaza-guanosine replaces G
Shared flanks, not repeated: GGGAGUUCUACAGUCCGACGAUC … UGGAAUUCUCGGGUGUCAAGG
`AAGUCCUGUGCUACACAUCGUAUGUACCGAAUCAAAUUUAAAUUUUUAAACCCAAAAAAGUAUUAUGUUACGCCGUUCGGAUCUGCACUU` gave a log2 enrichment of -0.505.
With `UCCUGUGCUACACAUCGUAUGUACCGAAUCGGGGUUUUUUUGGGGAAAAAGGGGUGGGGAAAGUAUUAUGUUACGCCGUUCGGAUCUGCA` the log2 enrichment was -1.05.
`GUCCUGUGCUACACAUCGUAUGUACCGAAUCGGUUUUUUUGGUUUUUGGUUUUUUUGGAAAGUAUUAUGUUACGCCGUUCGGAUCUGCAC` gave a log2 enrichment of -1.98.
`GCAGGAAGUAAAAACAAAUGGAAAUGCUUCGGAUAGUGGCAGGGGUGGGGGUUGCCAAGGAAAGGGUGGGAUGGGAGUGGGUAAAGAGUU` has a log2 enrichment of 1.18.
The log2 enrichment of `UGGCCCUGGUGGCAUGCGGGGAGGAUGAGGUGGCCUCAUGGAUCGUGGUGGUCCCGGUGGAAUGUUCAGAGGUGGCCGUGGUGGAGACAG` is reported as -0.128.
With `UGUUGAAAUGGGACAGUUGGCAGCGGCUCUGAUGAGCCCGAGAAGAGGCCUGCCCUUGGGUGCGGAGUCUCCCUCCGCACGAUGCUCCCA` the log2 enrichment was -1.84.
`AGUCCUGUGCUACACAUCGUAUGUACCGAAUCGGGAAAAAGGGAAAAAGGGUUUGGGAAAGUAUUAUGUUACGCCGUUCGGAUCUGCACU` gave a log2 enrichment of -2.86.
For `CCUGUGCUACACAUCGUAUGUACCGAAUCAAACCCCCCCAAAUUUUUAAACCCCCCCAAAAAAGUAUUAUGUUACGCCGUUCGGAUCUGC`, the log2 enrichment was 1.82.
The log2 enrichment of `CUCAAGUCCUGUGCUACACAUCGUAUGUACCGAAUCGGGGAAGGGGAAGGAAGGAAAGUAUUAUGUUACGCCGUUCGGAUCUGCACUUCC` is reported as -1.13.
The log2 enrichment of `AAGUCCUGUGCUACACAUCGUAUGUACCGAAUCGGGUUUUUUUGGGAAAGGGUGGGAAAGUAUUAUGUUACGCCGUUCGGAUCUGCACUU` is reported as -1.87.
The log2 enrichment of `AGUCCUGUGCUACACAUCGUAUGUACCGAAUCGGGAAAAAGGGAGGGUUUUUUUGGGAAAGUAUUAUGUUACGCCGUUCGGAUCUGCACU` is reported as -2.06.

Repeated from above (sample 3):
For `SNARRSVNFGGST [L7V]`, “normalised enrichment score” read -0.399.
For `SNARRSLNFGGMT [S12M]`, “normalised enrichment score” read 0.253.
`SNAGRSLNFGGST [R4G]` — result for “normalised enrichment score”: 0.354.
`SNFRRSLNFGGST [A3F]`: “normalised enrichment score” 0.998.
For `SNCRRSLNFGGST [A3C]`, “normalised enrichment score” read 0.476.
`SNARRSLNFGGSR [T13R]`: “normalised enrichment score” 1.14.
For `SNARMSLNFGGST [R5M]`, “normalised enrichment score” read 0.943.
`SNARRSLNFGGSN [T13N]` — result for “normalised enrichment score”: 1.24.
For `SNARRSLNFGGTT [S12T]`, “normalised enrichment score” read 0.861.
